# Measurements of several laboratories.
# Parts stem from different laboratories: compare values within a part only. “And” joins repeats or separate records; there may be more than shown.
# Chain of UniProt Q9UM73 (whole entry, looked up): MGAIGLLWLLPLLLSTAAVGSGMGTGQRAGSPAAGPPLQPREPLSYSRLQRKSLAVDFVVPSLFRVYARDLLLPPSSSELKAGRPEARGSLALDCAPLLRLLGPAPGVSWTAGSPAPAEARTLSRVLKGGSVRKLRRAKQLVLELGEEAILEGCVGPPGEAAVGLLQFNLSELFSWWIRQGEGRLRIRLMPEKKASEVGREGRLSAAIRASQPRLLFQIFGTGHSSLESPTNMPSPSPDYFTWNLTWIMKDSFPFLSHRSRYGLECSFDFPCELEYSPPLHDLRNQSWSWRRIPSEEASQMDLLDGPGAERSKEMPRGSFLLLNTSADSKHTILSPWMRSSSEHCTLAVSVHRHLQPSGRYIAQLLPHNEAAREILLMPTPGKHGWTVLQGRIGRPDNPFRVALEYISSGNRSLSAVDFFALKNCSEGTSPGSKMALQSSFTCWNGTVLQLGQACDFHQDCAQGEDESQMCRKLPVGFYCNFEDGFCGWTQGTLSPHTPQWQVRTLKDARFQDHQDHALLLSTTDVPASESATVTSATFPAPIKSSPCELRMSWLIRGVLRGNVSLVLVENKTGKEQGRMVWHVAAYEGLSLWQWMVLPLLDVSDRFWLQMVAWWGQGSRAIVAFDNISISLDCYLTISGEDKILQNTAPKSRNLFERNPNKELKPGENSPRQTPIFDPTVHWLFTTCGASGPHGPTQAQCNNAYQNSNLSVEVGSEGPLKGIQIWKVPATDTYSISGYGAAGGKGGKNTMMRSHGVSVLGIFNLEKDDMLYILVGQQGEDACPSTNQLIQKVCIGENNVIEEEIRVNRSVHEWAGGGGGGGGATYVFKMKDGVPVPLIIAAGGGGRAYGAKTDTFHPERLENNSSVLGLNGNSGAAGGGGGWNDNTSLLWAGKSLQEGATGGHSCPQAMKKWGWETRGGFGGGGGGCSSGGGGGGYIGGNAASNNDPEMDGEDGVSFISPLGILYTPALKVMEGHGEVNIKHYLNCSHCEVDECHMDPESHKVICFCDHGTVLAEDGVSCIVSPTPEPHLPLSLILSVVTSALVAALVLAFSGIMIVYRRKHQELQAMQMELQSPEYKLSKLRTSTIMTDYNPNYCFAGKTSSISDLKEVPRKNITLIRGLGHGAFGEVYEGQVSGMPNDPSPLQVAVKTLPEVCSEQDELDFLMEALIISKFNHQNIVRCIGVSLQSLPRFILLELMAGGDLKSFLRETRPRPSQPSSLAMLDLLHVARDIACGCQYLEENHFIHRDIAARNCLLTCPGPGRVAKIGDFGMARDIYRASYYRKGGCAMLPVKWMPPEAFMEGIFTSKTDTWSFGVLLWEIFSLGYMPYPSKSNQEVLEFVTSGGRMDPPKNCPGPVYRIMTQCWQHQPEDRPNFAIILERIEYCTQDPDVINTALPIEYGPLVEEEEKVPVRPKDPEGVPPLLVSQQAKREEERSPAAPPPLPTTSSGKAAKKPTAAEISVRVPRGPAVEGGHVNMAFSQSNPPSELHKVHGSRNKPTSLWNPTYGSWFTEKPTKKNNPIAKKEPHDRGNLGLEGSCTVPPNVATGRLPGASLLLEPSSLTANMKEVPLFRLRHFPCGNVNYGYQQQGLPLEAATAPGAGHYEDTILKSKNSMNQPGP
# Chain of UniProt P68400 (whole entry, looked up): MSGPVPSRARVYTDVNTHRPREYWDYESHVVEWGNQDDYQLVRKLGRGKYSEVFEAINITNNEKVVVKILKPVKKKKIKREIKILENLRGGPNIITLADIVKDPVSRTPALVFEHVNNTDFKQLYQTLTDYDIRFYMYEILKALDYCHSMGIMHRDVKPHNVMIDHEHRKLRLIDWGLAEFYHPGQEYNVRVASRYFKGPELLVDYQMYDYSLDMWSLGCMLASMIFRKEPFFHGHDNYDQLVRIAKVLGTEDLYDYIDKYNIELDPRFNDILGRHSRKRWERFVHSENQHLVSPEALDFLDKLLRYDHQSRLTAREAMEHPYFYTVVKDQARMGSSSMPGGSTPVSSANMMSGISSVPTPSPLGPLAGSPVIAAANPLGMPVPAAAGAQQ
# Chain of UniProt Q8TDR2 (whole entry, looked up): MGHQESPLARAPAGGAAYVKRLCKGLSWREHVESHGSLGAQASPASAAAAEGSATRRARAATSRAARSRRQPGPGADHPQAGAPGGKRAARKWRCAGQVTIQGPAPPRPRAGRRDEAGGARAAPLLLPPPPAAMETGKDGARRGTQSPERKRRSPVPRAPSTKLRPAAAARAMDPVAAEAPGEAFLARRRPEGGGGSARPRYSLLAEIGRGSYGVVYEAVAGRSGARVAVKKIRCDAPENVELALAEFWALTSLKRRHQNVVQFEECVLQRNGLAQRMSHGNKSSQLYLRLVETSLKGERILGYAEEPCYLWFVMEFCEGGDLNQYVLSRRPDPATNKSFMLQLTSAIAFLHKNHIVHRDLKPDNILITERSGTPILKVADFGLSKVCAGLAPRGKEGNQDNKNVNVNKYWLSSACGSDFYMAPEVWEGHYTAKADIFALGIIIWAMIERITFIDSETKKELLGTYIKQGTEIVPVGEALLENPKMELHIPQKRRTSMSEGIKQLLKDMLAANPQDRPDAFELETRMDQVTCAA

# Block 1
# Target: Beta-adrenergic receptor kinase 1 (GRK2, Homo sapiens, UniProt P25098)
# Read-out: enzyme activity
# Action: inhibitor
# Concentration: 0.5 µM
# Baseline: control
# Construct (P25098 1-689): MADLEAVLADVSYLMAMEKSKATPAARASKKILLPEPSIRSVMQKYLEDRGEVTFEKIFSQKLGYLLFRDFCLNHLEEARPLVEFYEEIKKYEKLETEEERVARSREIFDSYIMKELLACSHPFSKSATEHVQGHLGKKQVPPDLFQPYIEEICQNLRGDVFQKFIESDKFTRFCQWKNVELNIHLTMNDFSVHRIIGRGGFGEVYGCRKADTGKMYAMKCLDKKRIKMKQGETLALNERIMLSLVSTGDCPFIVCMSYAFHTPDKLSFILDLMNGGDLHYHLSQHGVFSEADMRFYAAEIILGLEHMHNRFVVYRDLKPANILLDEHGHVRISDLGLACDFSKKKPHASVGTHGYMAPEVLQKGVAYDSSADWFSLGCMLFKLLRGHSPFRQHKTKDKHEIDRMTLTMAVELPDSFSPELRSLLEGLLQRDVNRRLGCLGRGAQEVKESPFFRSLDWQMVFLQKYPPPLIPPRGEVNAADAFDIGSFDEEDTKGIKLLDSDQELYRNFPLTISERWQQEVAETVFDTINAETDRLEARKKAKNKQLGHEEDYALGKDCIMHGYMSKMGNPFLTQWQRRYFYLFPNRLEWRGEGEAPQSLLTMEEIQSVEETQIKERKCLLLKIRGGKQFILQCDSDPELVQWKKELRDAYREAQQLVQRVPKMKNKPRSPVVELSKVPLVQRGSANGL
Structure (SMILES),remaining activity
O=C(CCCc1ccc(-c2ccccc2F)cc1)Nc1ccc(O)cc1,105%
Nc1[nH]nc2nc3ccccc3nc12,101%
COc1cc2ncnc(Nc3ccc(Oc4ccccc4)cc3)c2cc1OC,101%
CN(C)c1ccc(C=C2C(=O)Nc3ccccc32)cc1,101%
Nc1ccc2ncnc(NCCc3ccc(Oc4ccccc4)cc3)c2c1,91.5%
C#Cc1cccc(Nc2ncnc3cc(OCCOC)c(OCCOC)cc23)c1,92.9%
CO[C@H]1C[C@@H]2CC[C@@H](C)[C@@](O)(O2)C(=O)C(=O)N2CCCC[C@H]2C(=O)O[C@H]([C@H](C)C[C@@H]2CC[C@@H](O)[C@H](OC)C2)CC(=O)[C@H](C)/C=C(\C)[C@@H](O)[C@@H](OC)C(=O)[C@H](C)C[C@H](C)/C=C/C=C/C=C/1C,102%
Cc1ccc(NC(=O)c2ccc(CN3CCN(C)CC3)cc2)cc1Nc1nc(-c2cccnc2)cs1,121%
OCC(O)CCON=C1C(c2c(O)[nH]c3ccccc23)=Nc2ccccc21 (stereo not drawn),101%
O=C(Nc1cccc(Nc2cc(Nc3cccc(C(F)(F)F)c3)ncn2)c1)C1CC1,97.9%
COc1cc2nccc(Oc3ccc(NC(=S)NC(=O)c4ccccc4C)cc3)c2cc1OC,95.6%
COc1ccc(CNC(=O)Nc2ncc([N+](=O)[O-])s2)cc1,96.4%
Cn1sc(=O)n(Cc2ccccc2)c1=O,96.7%
COc1cc2ncnc(Nc3ccc(F)c(Cl)c3)c2cc1OCCCN1CCOCC1,93.3%
O=c1c2ccccc2[nH]c(=S)n1CCN1CCC(=C(c2ccc(F)cc2)c2ccc(F)cc2)CC1,100%
O=C1NC(=O)C(c2cn(CCCn3ccnc3)c3ccccc23)=C1Nc1ccccc1,97.1%

# Block 2
# SMILES: CNC(=O)Nc1ccc2c(c1)CC[C@@]21OC(=O)N(CC(=O)N(Cc2ccc(F)cc2)[C@@H](C)C(F)(F)F)C1=O
# Read-out: cell-free assay
# Technique: competition with immobilised ligand
# Concentration: 1 µM
target,remaining binding
"Mitogen-activated protein kinase 4 (MAPK4, Homo sapiens, UniProt P31152)",84%
"Receptor-interacting serine/threonine-protein kinase 2 (RIPK2, Homo sapiens, UniProt O43353)",100%
"Focal adhesion kinase 1 (PTK2, Homo sapiens, UniProt Q05397)",94%
"ALK tyrosine kinase receptor (ALK, Homo sapiens, UniProt Q9UM73)",68%
"Receptor-type tyrosine-protein kinase FLT3 (FLT3, Homo sapiens, UniProt P36888, N841I)",100%
"Mitotic checkpoint serine/threonine-protein kinase BUB1 (BUB1, Homo sapiens, UniProt O43683)",66%
"Serine/threonine-protein kinase 35 (STK35, Homo sapiens, UniProt Q8TDR2)",89%
"Casein kinase II subunit alpha (CSNK2A1, Homo sapiens, UniProt P68400)",63%
"Tyrosine-protein kinase ABL1, non-phosphorylated (ABL1, Homo sapiens, UniProt P00519, F317I)",71%
"SRSF protein kinase 3 (SRPK3, Homo sapiens, UniProt Q9UPE1)",95%

# Block 3
# Target: DNA polymerase theta, ATPase domain (POLQ, Homo sapiens, UniProt O75417)
# Chain of UniProt O75417 (whole entry, unmodified, looked up): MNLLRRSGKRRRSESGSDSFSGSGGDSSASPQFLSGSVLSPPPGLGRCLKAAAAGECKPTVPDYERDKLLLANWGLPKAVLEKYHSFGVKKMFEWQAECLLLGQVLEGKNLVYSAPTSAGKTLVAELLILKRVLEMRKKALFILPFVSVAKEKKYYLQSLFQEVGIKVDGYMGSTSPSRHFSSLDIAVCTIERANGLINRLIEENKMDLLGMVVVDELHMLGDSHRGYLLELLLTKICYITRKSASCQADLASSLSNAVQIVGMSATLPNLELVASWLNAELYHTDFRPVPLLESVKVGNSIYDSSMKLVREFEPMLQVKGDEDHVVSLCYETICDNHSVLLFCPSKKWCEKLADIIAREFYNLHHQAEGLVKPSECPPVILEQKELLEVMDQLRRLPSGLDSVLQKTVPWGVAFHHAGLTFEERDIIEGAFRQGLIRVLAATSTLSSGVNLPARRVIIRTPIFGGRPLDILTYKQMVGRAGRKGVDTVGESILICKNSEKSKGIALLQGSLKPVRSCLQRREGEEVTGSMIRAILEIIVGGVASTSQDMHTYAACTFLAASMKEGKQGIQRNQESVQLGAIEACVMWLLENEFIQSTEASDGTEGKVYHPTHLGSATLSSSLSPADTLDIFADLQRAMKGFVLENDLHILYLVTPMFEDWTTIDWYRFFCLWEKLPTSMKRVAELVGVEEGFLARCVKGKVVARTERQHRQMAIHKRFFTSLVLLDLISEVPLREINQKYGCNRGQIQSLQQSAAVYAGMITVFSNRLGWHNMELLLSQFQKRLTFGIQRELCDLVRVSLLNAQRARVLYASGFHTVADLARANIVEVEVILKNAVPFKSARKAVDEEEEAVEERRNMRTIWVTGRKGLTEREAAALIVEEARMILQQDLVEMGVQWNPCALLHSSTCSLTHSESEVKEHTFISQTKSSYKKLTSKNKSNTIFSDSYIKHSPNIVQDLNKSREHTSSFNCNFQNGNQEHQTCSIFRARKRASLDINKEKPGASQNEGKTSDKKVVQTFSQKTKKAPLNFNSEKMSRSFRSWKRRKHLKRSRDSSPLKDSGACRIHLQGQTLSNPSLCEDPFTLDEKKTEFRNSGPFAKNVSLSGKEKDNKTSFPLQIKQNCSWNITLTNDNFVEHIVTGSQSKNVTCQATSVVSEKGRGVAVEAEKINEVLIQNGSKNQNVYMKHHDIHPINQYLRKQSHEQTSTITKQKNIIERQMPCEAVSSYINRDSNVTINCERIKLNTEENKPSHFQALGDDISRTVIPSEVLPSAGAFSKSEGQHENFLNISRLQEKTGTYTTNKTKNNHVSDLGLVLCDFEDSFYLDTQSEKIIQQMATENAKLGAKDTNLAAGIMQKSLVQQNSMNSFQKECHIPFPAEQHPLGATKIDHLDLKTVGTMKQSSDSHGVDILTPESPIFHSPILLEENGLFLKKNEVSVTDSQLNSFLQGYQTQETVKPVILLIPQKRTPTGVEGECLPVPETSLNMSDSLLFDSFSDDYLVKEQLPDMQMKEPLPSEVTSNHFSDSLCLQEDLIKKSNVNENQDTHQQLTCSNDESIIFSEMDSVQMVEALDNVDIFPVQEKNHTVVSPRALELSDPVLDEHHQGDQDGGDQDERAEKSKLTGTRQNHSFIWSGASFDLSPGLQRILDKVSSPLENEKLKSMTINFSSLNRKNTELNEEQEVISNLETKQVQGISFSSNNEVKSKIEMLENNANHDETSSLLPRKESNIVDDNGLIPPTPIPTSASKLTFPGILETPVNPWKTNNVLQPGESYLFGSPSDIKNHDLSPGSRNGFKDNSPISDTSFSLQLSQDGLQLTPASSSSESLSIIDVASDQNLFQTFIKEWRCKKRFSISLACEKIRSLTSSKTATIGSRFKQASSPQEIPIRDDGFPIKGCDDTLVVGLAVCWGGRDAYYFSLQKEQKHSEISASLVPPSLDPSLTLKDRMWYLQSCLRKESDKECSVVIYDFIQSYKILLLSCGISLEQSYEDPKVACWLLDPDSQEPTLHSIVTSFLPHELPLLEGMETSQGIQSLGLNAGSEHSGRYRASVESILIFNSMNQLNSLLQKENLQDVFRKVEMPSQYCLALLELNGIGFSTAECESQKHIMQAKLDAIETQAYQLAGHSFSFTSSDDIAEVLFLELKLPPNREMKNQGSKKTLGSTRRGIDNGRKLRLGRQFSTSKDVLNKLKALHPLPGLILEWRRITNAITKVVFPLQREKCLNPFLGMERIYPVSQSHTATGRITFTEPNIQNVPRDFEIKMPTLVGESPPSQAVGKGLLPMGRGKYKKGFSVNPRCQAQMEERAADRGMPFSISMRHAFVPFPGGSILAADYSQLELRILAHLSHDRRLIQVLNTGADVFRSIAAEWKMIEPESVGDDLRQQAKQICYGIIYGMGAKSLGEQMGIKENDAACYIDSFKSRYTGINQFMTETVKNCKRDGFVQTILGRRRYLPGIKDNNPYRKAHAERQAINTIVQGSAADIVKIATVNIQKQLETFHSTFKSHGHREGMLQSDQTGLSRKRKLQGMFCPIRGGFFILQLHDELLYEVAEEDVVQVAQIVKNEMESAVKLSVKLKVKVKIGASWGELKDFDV
# Read-out: enzyme activity
# Action: inhibitor
# Concentration: 77 µM
# Baseline: untreated
Compound,remaining activity [%]
S=c1[nH]cnc2nc[nH]c12,99.6
Cc1[nH]c2ccccc2c1CCNCc1ccc(/C=C/C(=O)NO)cc1,102
O=C(O)c1cc2cc(Cc3cccnc3)ccc2o1,99.7
COc1cc(Nc2ncc(F)c(Nc3ccc4c(n3)NC(=O)C(C)(C)O4)n2)cc(OC)c1OC,99.9
O=C1/C(=C/c2cccs2)CC/C1=C\c1cccs1,97.7
Cc1nc(N=Nc2cc(S(=O)(=O)O)c3cc([N+](=O)[O-])cc(S(=O)(=O)O)c3c2)c(COP(=O)(O)O)c(C=O)c1O,61.1

# Block 4
# Cell line: A-375
# Concentration: 100 µM
# Time: 36 h
SMILES,viability
C[C@]12CC[C@@H]3c4ccc(O)cc4CC[C@H]3[C@@H]1CC[C@@H]2O,48.3%
COc1cc(/C=C/C(=O)N2CCN(CC(=O)N3CCCC3)CC2)cc(OC)c1OC,116%
CC1(C)CCC(C)(C)c2cc(NC(=O)c3ccc(C(=O)O)cc3)ccc21,52.8%
COc1ccc2c(c1)C(=O)N(CCc1ccc(S(=O)(=O)NC(=O)NC3CCCCC3)cc1)C(=O)C2(C)C,86.7%
CO/N=C(\C(=O)N[C@@H]1C(=O)N2C(C(=O)O)=C(CSc3nc(=O)c(=O)[nH]n3C)CS[C@H]12)c1csc(N)n1,110%
COc1ccc(CN(CCN(C)C)c2ccccn2)cc1,79.6%
CC(N)[C@]12C[C@H]3C[C@H](C[C@H](C3)C1)C2 (stereo partly drawn),105%
CN[C@@H]1[C@H](O)[C@H](NC)[C@H]2O[C@@]3(O)C(=O)C[C@@H](C)O[C@H]3O[C@@H]2[C@H]1O,94.2% and 112%
CCc1nc(N)nc(N)c1-c1ccc(Cl)cc1,46.4%
OC(CCN1CCCCC1)(c1ccccc1)C1C[C@@H]2C=C[C@H]1C2 (stereo partly drawn),78.5%

# Some of these lines once more (block 1):
Structure (SMILES),remaining activity
Nc1[nH]nc2nc3ccccc3nc12,101%
COc1cc2ncnc(Nc3ccc(Oc4ccccc4)cc3)c2cc1OC,101%
CN(C)c1ccc(C=C2C(=O)Nc3ccccc32)cc1,101%
